Published values pooled from the literature.
Cell line: HepG2

For `CC(=O)O[C@@H]1CC[C@@]2(C)C(CC[C@]3(C)C2C(=O)C=C2C4[C@@H](C)[C@H](C)CC[C@]4(C)CC[C@]23C)[C@@]1(C)C(=O)OCC(=O)Oc1cc(C)ccc1C(C)C` (stereo partly shown), the inhibition was about 39% (IL-1β production, ELISA, measured: IL-1β; 1 µM, added: acetaminophen 10 mM; baseline: acetaminophen-treated cells).
`CC1(C)[C@@H](O)CC[C@]2(C)[C@H]3C(=O)C=C4[C@@H]5C[C@@](C)(C(=O)O)CC[C@]5(C)CC[C@@]4(C)[C@]3(C)CC[C@@H]12` has an inhibition of 0% (cell growth or viability, MTT; 2 µg/mL).
The inhibition of `CC(C)(C)c1cc2c(O)c(c1)Cc1cc(C(C)(C)C)cc(c1OCC(=O)NCc1ccncc1)Cc1cc(C(C)(C)C)cc(c1O)Cc1cc(C(C)(C)C)cc(c1OCC(=O)NCc1ccncc1)COC2` is reported as 66% (cell growth or viability, MTT; 15 µM, 72 h).
The inhibition of `O=C(COc1ccc(/C=N/Nc2nc(-c3ccc(Br)cc3)cs2)cc1)N1CCN(C(=O)COc2ccc(/C=N/Nc3nc(-c4ccc(Br)cc4)cs3)cc2)CC1` is reported as 62.3% (cell growth or viability, SRB; 100 µM, 48 h).
The inhibition of `CC(C)(C)c1cc2c(O)c(c1)Cc1cc(C(C)(C)C)cc(c1OCC(=O)Nc1ccncc1)Cc1cc(C(C)(C)C)cc(c1O)Cc1cc(C(C)(C)C)cc(c1OCC(=O)Nc1ccncc1)COC2` is reported as 22% (cell growth or viability, MTT; 15 µM, 72 h).
With `CC(=O)O[C@@H]1CC[C@@]2(C)C(CC[C@]3(C)C2C(=O)C=C2C4[C@@H](C)[C@H](C)CC[C@]4(C)CC[C@]23C)[C@@]1(C)C(=O)N/N=C1/C(=O)Nc2ccccc21` (stereo partly shown) the inhibition was about 47% (IL-1β production, ELISA, measured: IL-1β; 10 µM, added: acetaminophen 10 mM; baseline: acetaminophen-treated cells).
`CC(C)(C)c1cc2c(O)c(c1)Cc1cc(C(C)(C)C)cc(c1OCC(=O)NCc1ccccn1)Cc1cc(C(C)(C)C)cc(c1O)Cc1cc(C(C)(C)C)cc(c1OCC(=O)NCc1ccccn1)COC2` has an inhibition of 94% (cell growth or viability, MTT; 15 µM, 72 h).
The inhibition of `CCNC(=S)N/N=C(\C)c1ccccn1` is reported as 61% (cell growth or viability, SRB; 100 µg/mL, 48 h).
For `C[C@]1(COC(=O)c2ccc(O)c(O)c2)[C@H](C(=O)O)N2C(=O)/C(=C/c3ccccn3)[C@H]2S1(=O)=O`, the inhibition was 7% (cell growth or viability; 32.2 µM).
For `CC(C)(C)c1cc2c(O)c(c1)Cc1cc(C(C)(C)C)cc(c1OCC(=O)Nc1nccs1)Cc1cc(C(C)(C)C)cc(c1O)Cc1cc(C(C)(C)C)cc(c1OCC(=O)Nc1nccs1)COC2`, the inhibition was 16% (cell growth or viability, MTT; 15 µM, 72 h).
`O=C(COc1ccccc1/C=N/Nc1nc(-c2ccc(Br)cc2)cs1)N1CCN(C(=O)COc2ccccc2/C=N/Nc2nc(-c3ccc(Br)cc3)cs2)CC1` gave an inhibition of 74.8% (cell growth or viability, SRB; 100 µM, 48 h).
The inhibition of `CC1(C)C2CC[C@]3(C)[C@H](C(=O)C=C4[C@@H]5C[C@@](C)(C(=O)N6CCN(C(=O)Cc7ccc(Cl)cc7)CC6)CC[C@]5(C)CC[C@]43C)[C@@]2(C)CC[C@@H]1OC(=O)Cc1ccc(Cl)cc1` (stereo partly shown) is reported as 0% (cell growth or viability, MTT; 20 µg/mL).
With `Cn1c(=O)c(C(=O)N/N=C/c2ccccc2/C=N/NC(=O)c2nc3ccccc3n(C)c2=O)nc2ccccc21` the inhibition was 54.2% (cell growth or viability, MTT; 10 µM).

Excerpt of the above:
For `CC(=O)O[C@@H]1CC[C@@]2(C)C(CC[C@]3(C)C2C(=O)C=C2C4[C@@H](C)[C@H](C)CC[C@]4(C)CC[C@]23C)[C@@]1(C)C(=O)OCC(=O)Oc1cc(C)ccc1C(C)C` (stereo partly shown), the inhibition was about 39% (IL-1β production, ELISA, measured: IL-1β; 1 µM, added: acetaminophen 10 mM; baseline: acetaminophen-treated cells).
The inhibition of `O=C(COc1ccc(/C=N/Nc2nc(-c3ccc(Br)cc3)cs2)cc1)N1CCN(C(=O)COc2ccc(/C=N/Nc3nc(-c4ccc(Br)cc4)cs3)cc2)CC1` is reported as 62.3% (cell growth or viability, SRB; 100 µM, 48 h).
